Assay results pooled from the literature.
Compare with care: the assays were run in different laboratories. ± gives the spread as reported.
NR1I2: Nuclear receptor subfamily 1 group I member 2 (NR1I2, Homo sapiens, UniProt O75469)
UniProt O75469, sequence (whole entry, looked up): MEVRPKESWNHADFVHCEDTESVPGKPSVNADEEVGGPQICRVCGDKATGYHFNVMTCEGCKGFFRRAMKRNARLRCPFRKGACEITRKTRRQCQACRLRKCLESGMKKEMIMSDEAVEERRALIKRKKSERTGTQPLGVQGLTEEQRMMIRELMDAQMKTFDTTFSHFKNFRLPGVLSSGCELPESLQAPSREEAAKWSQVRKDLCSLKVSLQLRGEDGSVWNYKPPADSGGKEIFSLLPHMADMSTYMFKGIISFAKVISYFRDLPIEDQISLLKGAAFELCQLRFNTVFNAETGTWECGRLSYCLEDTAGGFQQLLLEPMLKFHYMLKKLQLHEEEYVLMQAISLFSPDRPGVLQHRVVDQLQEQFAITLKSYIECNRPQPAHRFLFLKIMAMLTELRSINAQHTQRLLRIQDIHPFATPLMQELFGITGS
UniProt P08684, sequence (whole entry, looked up): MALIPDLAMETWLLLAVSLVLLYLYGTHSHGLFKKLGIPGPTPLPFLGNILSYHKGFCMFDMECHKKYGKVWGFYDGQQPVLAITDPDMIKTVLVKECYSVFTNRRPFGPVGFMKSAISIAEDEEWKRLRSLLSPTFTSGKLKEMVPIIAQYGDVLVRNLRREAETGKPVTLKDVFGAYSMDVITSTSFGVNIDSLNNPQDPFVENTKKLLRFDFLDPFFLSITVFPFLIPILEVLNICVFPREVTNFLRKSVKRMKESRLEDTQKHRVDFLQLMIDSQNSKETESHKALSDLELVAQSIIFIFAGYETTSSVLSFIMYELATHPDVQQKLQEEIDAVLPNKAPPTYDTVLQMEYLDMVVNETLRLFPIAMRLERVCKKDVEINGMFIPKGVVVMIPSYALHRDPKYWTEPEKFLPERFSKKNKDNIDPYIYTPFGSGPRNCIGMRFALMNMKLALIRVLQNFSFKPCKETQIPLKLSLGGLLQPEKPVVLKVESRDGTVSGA
UniProt P11712, sequence (whole entry, looked up): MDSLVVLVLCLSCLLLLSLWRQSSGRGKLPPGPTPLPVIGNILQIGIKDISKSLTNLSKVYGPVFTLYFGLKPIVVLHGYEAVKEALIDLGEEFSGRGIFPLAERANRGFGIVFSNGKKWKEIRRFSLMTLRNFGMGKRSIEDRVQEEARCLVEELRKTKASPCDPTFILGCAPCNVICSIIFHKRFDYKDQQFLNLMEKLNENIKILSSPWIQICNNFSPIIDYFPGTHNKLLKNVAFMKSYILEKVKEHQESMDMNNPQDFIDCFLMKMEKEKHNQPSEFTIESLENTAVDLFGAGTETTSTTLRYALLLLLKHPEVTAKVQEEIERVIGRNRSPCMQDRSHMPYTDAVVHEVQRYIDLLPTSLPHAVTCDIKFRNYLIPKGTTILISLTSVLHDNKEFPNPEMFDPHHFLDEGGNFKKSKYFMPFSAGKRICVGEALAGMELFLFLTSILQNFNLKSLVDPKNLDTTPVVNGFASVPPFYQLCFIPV

COc1ccc2c(c1)[C@]13CCCC[C@@H]1[C@H](C2)N(C)CC3  Cmax (Wistar rat, both sexes, plasma; oral, 5 mg/kg, 2 h after pretreatment, added: single quinidine 2.5 mg/kg): 49.5 ± 14.6 ng/mL
CN1CC[C@]23c4c5ccc(O)c4O[C@H]2[C@@H](O[C@@H]2O[C@H](C(=O)O)[C@@H](O)[C@H](O)[C@H]2O)C=C[C@H]3[C@H]1C5  Papp (MDCK-MDR1; 100 µg/mL, 100 min): 2.35 ×10⁻⁶ cm/s
N[C@]1(c2ccccc2Cl)CC[C@H](O)CC1=O  dose-normalized Cmax (male CD-1 mice, plasma; intraperitoneal, 5 mg/kg): 133 ± 4.2 ng/mL per mg/kg
C[C@H]1CNCCc2ccc(Cl)cc21  CL/F (male Sprague-Dawley rat, plasma; subcutaneous, pimavanserin 1 + lorcaserin 1 mg/kg, pimavanserin 15 min earlier): 319 ± 16.5 mL/min/kg
Cc1ncc2n1-c1ccc(Cl)cc1C(c1ccccc1F)=NC2  terminal half-life (human CYP3A5*1/*3 and *1/*6, serum; geometric mean, added: ketoconazole 400 mg): 8.72 h
CSCC[C@@H]1NC(=O)[C@H](CC(=O)O)NC(=O)CNC(=O)[C@H](CCCNC(=N)N)NC(=O)[C@H](C)NC(=O)[C@H](CCC(=O)O)NC(=O)[C@H](CCCNC(=N)N)NC(=O)[C@@H]2CSSC[C@@H]3NC(=O)[C@H](CO)NC(=O)[C@H]([C@@H](C)O)NC(=O)[C@@H]4CCCN4C(=O)[C@H](C)NC(=O)[C@H](Cc4c[nH]c5ccccc45)NC(=O)[C@H](CC(=O)O)NC(=O)CNC(=O)[C@H](CCCNC(=N)N)NC(=O)CNC(=O)[C@H](CCC(N)=O)NC(=O)[C@@H]4CCCN4C(=O)[C@@H](NC(=O)CNC(=O)C(C)F)CSSC[C@H](NC(=O)CNC(=O)[C@H](C)NC(=O)[C@H](CC(C)C)NC(=O)[C@H](CSSC[C@@H](C(=O)NCC(N)=O)NC(=O)[C@H]([C@@H](C)O)NC(=O)[C@H](CCCNC(=N)N)NC(=O)[C@@H]4CCCN4C1=O)NC(=O)[C@H](CC(=O)O)NC(=O)[C@H](CO)NC(=O)[C@H](CC(=O)O)NC(=O)[C@H](CCC(N)=O)NC(=O)[C@H](CO)NC3=O)C(=O)N[C@@H](C(C)C)C(=O)N2 (stereo partly shown) [fluorine-18 labelled]  tissue uptake (nude mice U-87 MG xenograft, heart; intravenous, 2.5 h): 0.29 ± 0.05 %ID/g
CN1COCN(Cc2cnc(Cl)s2)/C1=N\[N+](=O)[O-]  EC10 (Folsomia candida; reproduction, OECD 232; LUFA 2.2 soil; 28 days): 0.1 mg/kg dry soil
[123I]c1cncc(OC[C@@H]2CCN2)c1  tissue/plasma ratio (SPECT; human, brain cortex; intravenous bolus plus infusion, 7.7 mCi; relative to: plasma): 37.4
Brc1ccc(Oc2cc(Br)c(Br)cc2Br)c(Br)c1  fold induction (NR1I2; reporter gene, agonist, luciferase; COS-7; 24 h; relative to: DMSO): 5.1 ± 0.7 fold
C[C@@H]1CCO[C@H]2Cn3cc(C(=O)NCc4ccc(F)cc4F)c(=O)c(O)c3C(=O)N12  intracellular concentration (hCMEC/D3; 10 µM, 1 h): 48.6 ± 5.04 ng/mL
O=c1cc(-c2ccccc2)oc2ccc3ccccc3c12  fold induction (PXR (polar bear); reporter gene, agonist, luciferase; COS-7; 24 h; relative to: DMSO): 2.1 ± 0.4 fold
CN[C@@](C)(C[18F])C(=O)O  tracer uptake (SK-OV-3 tumour model; host not given, bone; 30 min, tumour-bearing): 2.8 %ID/g
C=C1C[C@@H]2[C@H](CC[C@]3(C)C(=O)CC[C@@H]23)[C@@]2(C)C=CC(=O)C=C12  median plasma concentration (LC-MS/MS; postmenopausal breast cancer women, plasma; oral, 25 mg/day, 2 h, CrCl 83.0 to 108.5 mL/min): 8.6 ng/mL
N[C@@]1(c2ccccc2Cl)C[C@@H](O)CCC1=O  dose-normalized Cmax (male CD-1 mice, plasma; intraperitoneal, 5 mg/kg): 640 ± 24.7 ng/mL per mg/kg
Clc1ccc(-c2cc(Cl)c(Cl)cc2Cl)cc1Cl  fold induction (NR1I2; reporter gene, agonist, luciferase; COS-7; 24 h; relative to: DMSO): 2.4 ± 0.2 fold
CN/C(=N\[N+](=O)[O-])NCc1cnc(Cl)s1  EC10 (Folsomia candida; reproduction, OECD 232; LUFA 2.2 soil; 28 days): 0.03 mg/kg dry soil
CCCC(CCC)C(=O)O  lowest effective concentration (Artemia franciscana; body length; larvae; 24 and 48 h, 0.17% DMSO): 9.6 mM
CC[C@@H]1CN2CCc3c([nH]c4cccc(OC)c34)[C@H]2C[C@@H]1/C(=C\OC)C(=O)OC  IC50 (Cytochrome P450 2C9 (CYP2C9, Homo sapiens, UniProt P11712); enzyme activity, inhibitor; human liver microsomes; added: diclofenac 4'-hydroxylation): > 45 µM
Cc1ncc2n1-c1ccc(Cl)cc1C(c1ccccc1F)=NC2  Papp (Caco-2 clone P27.7; 3 µM, pH 7.4, added: cranberry juice 25% apical; apical to basolateral): 12 ± 2.4 ×10⁻⁶ cm/s
O=[N+]([O-])NC1=NCCN1Cc1ccc(Cl)nc1  LC50 (Folsomia candida; survival, OECD 232; LUFA 2.2 soil; 28 days): 0.55 mg/kg dry soil
CCCCCCCCCCc1cn(Cc2cn([C@H]3C[C@H](OC(=O)OC[C@H]4O[C@@H](n5cc(C)c(=O)[nH]c5=O)C[C@@H]4N=[N+]=[N-])[C@@H](CO)O3)c(=O)[nH]c2=O)nn1  CC50 (MT4; cell growth or viability): 113 µM
Clc1cc(Cl)c(-c2c(Cl)cc(Cl)c(Cl)c2Cl)c(Cl)c1  fold induction (NR1I2; reporter gene, agonist, luciferase; COS-7; 24 h; relative to: DMSO): 3.2 ± 0.5 fold
OCc1ncc2n1-c1ccc(Cl)cc1C(c1ccccc1F)=NC2  metabolic AUC ratio (Cytochrome P450 3A4 (CYP3A4, Homo sapiens, UniProt P08684); human; oral, 25 mg once daily, day -1, molecular-weight corrected, geometric mean, added: midazolam 7.5 mg; relative to: compound AUC over midazolam AUC): 0.33
C[C@H](Cn1cnc2c(N)ncnc21)OCP(=O)(O)O  intracellular accumulation (hCMEC/D3; 10 µM, 1 h, 37 °C, 3-drug cART combination): 5.15 ± 1.11 pmol/mg protein
Clc1ccc(Cl)c(-c2c(Cl)c(Cl)cc(Cl)c2Cl)c1  fold induction (PXR (polar bear); reporter gene, agonist, luciferase; COS-7; 24 h; relative to: DMSO): 1.5 ± 0.2 fold
